Assay results gathered from unrelated publications.
Compare with care: the assays were run in different laboratories. Numbers after ± are the reported error.
RPA1 N-terminal domain: Replication protein A 70 kDa DNA-binding subunit, N-terminal domain (RPA1, Homo sapiens, UniProt P27694)
GRM4: Metabotropic glutamate receptor 4 (GRM4, Homo sapiens, UniProt Q14833)
Grm2: Metabotropic glutamate receptor 2 (Grm2, Rattus norvegicus, UniProt P31421)
GLP1R: Glucagon-like peptide 1 receptor (GLP1R, Homo sapiens, UniProt P43220)
MAPK8: Mitogen-activated protein kinase 8 (MAPK8, Homo sapiens, UniProt P45983)

Protein sequences, listed by entry. Tags and fused reporters are not part of them. Lines headed by an entry give the natural chain unless they say otherwise; changes in a name come on top. Residues count along the entry.
UniProt Q14833, 33-912 limits assumed: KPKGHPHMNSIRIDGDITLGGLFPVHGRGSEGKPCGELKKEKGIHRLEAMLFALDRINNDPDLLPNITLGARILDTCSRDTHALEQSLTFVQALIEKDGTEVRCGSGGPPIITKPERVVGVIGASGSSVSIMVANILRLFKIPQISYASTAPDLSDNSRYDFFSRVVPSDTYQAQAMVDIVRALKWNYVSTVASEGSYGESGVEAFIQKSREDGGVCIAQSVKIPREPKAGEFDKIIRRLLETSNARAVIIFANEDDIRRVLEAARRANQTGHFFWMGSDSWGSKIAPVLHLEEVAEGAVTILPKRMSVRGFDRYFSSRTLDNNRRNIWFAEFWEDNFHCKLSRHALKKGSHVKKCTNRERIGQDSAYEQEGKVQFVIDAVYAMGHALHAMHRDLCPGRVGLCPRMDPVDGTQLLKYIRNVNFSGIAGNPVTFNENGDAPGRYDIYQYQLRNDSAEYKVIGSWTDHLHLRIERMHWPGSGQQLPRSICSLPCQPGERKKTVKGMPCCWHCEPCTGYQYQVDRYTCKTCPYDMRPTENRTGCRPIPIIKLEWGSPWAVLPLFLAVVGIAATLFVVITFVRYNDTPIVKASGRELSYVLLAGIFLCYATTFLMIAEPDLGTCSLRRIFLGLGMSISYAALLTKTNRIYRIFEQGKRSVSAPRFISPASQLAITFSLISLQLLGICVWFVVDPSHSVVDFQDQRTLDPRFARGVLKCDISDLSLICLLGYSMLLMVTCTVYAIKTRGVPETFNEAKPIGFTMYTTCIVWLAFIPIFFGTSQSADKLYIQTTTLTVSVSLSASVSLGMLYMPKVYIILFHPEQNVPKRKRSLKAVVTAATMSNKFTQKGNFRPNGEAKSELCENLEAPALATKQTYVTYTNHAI
UniProt P31421, 19-872 limits assumed: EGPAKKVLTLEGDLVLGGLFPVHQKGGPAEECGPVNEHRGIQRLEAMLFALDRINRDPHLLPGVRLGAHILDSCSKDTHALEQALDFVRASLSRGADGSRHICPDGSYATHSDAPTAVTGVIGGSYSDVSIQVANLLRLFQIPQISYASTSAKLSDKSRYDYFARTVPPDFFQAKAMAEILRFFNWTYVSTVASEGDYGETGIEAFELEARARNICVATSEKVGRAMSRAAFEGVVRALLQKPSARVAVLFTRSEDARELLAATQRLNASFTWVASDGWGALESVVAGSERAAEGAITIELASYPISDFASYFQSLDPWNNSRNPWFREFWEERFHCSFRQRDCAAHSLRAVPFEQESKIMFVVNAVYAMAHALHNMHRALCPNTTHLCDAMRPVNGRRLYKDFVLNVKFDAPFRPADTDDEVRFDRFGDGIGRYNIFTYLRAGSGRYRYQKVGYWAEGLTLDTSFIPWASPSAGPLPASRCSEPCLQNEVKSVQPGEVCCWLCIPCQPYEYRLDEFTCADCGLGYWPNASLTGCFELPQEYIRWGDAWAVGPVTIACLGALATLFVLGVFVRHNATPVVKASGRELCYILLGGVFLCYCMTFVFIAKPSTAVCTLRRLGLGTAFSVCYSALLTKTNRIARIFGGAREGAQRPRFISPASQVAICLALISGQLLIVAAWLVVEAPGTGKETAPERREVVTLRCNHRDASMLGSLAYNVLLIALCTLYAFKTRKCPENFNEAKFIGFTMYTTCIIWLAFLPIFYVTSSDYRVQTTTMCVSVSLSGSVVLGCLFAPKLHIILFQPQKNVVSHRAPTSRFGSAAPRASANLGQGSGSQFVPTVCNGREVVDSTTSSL
UniProt P45983, 1-384 isoform 3: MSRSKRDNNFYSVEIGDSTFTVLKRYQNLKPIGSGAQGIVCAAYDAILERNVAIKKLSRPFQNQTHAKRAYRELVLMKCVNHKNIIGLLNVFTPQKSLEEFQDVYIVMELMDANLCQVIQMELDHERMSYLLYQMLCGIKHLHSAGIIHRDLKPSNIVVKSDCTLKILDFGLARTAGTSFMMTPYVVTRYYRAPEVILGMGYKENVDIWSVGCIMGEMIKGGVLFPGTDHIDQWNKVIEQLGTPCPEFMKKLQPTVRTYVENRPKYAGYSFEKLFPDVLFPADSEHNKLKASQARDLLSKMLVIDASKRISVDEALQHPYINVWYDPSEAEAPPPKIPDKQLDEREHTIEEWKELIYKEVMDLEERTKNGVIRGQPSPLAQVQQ
UniProt P45983, 1-384 isoform 3 C116S: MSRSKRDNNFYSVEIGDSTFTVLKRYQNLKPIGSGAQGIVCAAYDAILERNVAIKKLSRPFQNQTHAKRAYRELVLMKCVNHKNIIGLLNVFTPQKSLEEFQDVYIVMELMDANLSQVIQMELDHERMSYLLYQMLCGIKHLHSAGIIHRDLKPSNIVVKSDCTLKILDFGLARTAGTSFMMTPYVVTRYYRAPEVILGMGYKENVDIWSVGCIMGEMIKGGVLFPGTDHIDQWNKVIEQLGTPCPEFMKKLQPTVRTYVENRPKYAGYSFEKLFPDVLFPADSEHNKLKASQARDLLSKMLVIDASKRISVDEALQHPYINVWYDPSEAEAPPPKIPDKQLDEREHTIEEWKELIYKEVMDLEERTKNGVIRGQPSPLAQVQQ
UniProt Q06187, whole entry: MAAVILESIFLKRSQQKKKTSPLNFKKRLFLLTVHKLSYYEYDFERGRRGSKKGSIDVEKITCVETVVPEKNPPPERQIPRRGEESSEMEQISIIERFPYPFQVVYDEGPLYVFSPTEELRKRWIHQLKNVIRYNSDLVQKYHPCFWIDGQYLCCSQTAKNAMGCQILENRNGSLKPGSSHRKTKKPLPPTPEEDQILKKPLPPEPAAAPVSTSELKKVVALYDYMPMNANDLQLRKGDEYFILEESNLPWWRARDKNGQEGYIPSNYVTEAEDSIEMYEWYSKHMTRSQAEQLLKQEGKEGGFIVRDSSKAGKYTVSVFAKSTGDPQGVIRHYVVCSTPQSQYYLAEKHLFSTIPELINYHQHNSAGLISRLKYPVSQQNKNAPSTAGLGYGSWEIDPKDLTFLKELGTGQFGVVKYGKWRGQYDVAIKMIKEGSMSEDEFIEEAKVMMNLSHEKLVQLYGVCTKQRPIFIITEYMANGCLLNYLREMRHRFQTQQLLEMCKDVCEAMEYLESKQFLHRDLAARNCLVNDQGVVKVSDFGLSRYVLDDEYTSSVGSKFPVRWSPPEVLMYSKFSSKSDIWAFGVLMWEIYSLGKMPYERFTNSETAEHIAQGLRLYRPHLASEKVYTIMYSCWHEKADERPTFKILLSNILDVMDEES
UniProt P0DMS8, whole entry: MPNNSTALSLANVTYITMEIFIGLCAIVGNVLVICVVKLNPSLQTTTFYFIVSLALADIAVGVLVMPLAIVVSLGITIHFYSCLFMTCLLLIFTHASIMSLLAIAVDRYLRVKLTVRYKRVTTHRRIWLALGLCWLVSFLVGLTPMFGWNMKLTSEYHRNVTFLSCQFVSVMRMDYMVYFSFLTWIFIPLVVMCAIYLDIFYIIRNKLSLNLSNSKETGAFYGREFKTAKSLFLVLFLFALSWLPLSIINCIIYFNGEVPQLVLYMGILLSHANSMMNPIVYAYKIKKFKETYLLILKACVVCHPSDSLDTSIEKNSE
UniProt Q5VWZ2, whole entry: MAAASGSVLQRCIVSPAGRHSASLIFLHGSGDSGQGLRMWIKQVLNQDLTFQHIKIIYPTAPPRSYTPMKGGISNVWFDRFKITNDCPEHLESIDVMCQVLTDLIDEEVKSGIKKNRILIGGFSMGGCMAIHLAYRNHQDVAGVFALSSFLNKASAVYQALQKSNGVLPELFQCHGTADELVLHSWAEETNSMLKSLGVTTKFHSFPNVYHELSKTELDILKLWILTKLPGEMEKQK
UniProt Q07440, whole entry P104K/C113S, looked up: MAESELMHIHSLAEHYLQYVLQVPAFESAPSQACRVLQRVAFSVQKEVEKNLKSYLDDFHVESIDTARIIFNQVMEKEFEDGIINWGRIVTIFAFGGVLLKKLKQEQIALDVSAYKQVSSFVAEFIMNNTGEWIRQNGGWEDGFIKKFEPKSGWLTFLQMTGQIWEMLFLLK
UniProt Q9UBN7, whole entry: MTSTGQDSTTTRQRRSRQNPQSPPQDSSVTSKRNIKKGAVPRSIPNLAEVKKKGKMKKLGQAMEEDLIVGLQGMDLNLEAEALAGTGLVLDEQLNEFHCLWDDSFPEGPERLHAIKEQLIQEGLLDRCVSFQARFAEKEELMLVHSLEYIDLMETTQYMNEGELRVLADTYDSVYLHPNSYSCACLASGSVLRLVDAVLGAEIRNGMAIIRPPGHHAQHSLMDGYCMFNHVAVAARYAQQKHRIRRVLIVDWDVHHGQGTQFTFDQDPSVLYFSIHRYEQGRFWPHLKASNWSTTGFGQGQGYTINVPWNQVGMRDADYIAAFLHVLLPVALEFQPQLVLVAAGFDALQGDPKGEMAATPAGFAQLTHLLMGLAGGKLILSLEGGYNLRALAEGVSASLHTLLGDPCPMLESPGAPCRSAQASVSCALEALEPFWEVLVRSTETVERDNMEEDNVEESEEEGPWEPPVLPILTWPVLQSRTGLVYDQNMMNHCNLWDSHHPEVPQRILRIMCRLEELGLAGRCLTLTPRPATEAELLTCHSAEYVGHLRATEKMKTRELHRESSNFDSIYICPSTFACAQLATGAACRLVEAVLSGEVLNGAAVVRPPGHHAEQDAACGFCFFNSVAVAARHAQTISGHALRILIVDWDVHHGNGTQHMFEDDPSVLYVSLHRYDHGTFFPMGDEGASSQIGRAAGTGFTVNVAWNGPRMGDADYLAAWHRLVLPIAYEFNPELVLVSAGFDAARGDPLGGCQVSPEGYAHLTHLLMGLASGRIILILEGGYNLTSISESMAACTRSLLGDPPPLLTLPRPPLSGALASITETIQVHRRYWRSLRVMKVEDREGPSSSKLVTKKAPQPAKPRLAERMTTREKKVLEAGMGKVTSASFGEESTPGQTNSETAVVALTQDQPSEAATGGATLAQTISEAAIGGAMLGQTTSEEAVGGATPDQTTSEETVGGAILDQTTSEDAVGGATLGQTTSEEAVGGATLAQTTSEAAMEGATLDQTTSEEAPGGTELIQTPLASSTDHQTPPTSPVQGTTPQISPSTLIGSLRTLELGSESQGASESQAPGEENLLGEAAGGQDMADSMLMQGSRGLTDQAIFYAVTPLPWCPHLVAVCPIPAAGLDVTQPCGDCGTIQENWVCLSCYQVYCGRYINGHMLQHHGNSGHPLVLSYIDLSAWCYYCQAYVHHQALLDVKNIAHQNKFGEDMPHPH
UniProt P11473, whole entry: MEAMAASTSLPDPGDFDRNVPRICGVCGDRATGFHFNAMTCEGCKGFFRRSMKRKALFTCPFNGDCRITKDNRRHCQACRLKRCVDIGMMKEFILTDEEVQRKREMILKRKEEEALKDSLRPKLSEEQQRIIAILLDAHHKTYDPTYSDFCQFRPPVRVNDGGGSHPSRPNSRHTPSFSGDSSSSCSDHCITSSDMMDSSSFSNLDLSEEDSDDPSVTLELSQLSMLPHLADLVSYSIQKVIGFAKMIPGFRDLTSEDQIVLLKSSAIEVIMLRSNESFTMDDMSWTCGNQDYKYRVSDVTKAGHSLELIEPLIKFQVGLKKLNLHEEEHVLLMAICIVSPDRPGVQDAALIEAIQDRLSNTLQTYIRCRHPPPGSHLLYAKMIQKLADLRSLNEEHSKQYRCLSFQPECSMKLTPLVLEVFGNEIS
UniProt O75874, whole entry R132H: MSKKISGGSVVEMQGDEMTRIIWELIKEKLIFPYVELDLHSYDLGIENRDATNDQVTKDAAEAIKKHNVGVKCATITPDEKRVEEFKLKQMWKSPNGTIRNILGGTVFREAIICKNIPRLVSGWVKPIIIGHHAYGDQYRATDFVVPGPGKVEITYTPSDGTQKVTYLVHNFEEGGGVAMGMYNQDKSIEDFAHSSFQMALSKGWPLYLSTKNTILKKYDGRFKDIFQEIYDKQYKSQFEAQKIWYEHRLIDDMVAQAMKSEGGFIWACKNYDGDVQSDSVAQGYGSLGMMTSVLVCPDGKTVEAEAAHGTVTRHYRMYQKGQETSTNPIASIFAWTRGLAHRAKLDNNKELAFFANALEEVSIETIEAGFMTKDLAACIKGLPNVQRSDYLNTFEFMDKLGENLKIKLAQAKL
UniProt Q3UFF7, whole entry: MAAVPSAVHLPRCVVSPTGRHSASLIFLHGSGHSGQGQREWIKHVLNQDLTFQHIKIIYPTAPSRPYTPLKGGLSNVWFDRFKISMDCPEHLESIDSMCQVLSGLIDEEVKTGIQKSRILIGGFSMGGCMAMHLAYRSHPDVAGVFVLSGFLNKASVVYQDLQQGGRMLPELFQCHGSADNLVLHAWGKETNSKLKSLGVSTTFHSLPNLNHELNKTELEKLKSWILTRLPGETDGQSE
UniProt P29466, whole entry, looked up: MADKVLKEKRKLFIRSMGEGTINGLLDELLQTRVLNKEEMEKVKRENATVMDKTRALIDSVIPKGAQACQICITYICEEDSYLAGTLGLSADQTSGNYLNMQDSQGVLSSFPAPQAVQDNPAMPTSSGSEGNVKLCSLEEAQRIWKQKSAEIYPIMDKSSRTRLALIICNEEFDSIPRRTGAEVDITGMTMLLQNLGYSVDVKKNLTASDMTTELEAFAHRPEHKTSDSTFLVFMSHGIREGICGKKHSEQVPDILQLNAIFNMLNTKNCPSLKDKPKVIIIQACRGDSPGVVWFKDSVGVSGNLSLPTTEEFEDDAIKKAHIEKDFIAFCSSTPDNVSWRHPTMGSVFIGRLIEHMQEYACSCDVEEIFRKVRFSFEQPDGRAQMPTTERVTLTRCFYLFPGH

Structure (SMILES)	target or system	test	system	conditions	scale	measurement	value
CC(C)(C)c1ccnc(NC(=O)c2ccc(-c3nn([C@@H]4CCCN(C(=O)C5CC5)C4)c4ncnc(N)c34)cc2)c1	Tyrosine-protein kinase BTK, non-phosphorylated (BTK, Homo sapiens, UniProt Q06187)	TR-FRET binding kinetics	–	37 °C, unphosphorylated protein	–	koff	0.00686 ± 0.00088 s⁻¹
CC(=O)N[C@@H](CC(C)C)C(=O)N[C@@H](CCCNC(=N)N)C(=O)N[C@@H](CO)C(=O)N[C@@H](CCCNC(=N)N)C(=O)Nc1ccc2c(C(F)(F)F)cc(=O)oc2c1	MALT1 (Homo sapiens, UniProt Q9UDY8)	substrate, fluorogenic peptide hydrolysis	–	pH 7.5, catalytic domain 285 or 294 nM	–	kcat/Km	4600 M⁻¹ s⁻¹
Cc1ccc(NC(=O)c2ccc(C)c(S(=O)(=O)Nc3cccc(Cl)c3)c2)c(C(=O)O)c1	RPA1 N-terminal domain	binding, fluorescence polarisation competition	–	added: FITC-ATRIP probe	–	ligand efficiency	0.2
COc1ccc(NC(=O)CN2CCCN(S(=O)(=O)c3ccc(C(F)(F)F)cc3)CC2)c(OC)c1	GRM4	calcium mobilization, positive allosteric modulator	CHO cells with Gqi5	added: glutamate	baseline: PHCCC maximal response	maximal response	26.6%
NC(=O)c1cn(-c2ccc(F)cc2)c2ccc(CN3CCCSCC3)cc2c1=O	Grm2	calcium mobilization, negative allosteric modulator	–	30 µM, added: glutamate 100 µM	baseline: glutamate maximum	response	2.19 ± 0.24%
COc1ccc(NC(=O)CN2CCCN(S(=O)(=O)c3ccc(Cl)c(F)c3)CC2)c(OC)c1	GRM4	calcium mobilization, positive allosteric modulator	CHO cells with Gqi5	added: glutamate	baseline: PHCCC maximal response	maximal response	25.5 ± 1.2%
O[C@@H]1[C@H](O)[C@@H]2C[C@@H]2[C@H]1n1cnc2c(NCc3cccc([125I])c3)nc(Cl)nc21	ADORA3 (Homo sapiens, UniProt P0DMS8)	binding	HEK293 cell membranes	room temperature	–	association half-life	33.6 ± 4.8 s
O=C(Nc1ccc(F)cc1)C12CC1/C(=N\O)c1ccccc1O2 (stereo not shown)	GRM4	positive allosteric modulator, calcium mobilization	CHO expressing Gqi5	concentration not given, added: glutamate EC20	baseline: (±)-PHCCC	response	71.6 ± 5.1%
Nc1nc(SCc2ccc(Cl)cc2)nn1S(=O)(=O)c1ccc(C(F)(F)F)nc1	LYPLAL1 (Homo sapiens, UniProt Q5VWZ2)	activator, gel-based ABPP	purified protein	–	baseline: DMSO	FP-rhodamine labelling	1.8 fold
CN(Cc1ccccc1)Cc1cn(CC(C)(C)c2c[nH]c3ccccc23)nn1	GLP1R	cAMP accumulation, positive allosteric modulator, HTRF	–	0.6 µM, crude reaction product, added: GLP-1(9-36) at EC20	baseline: BETP	Emax	99.5%
COC(=O)[C@@H]1C(C=Nc2cncnc2N)=Cc2cc3c(cc2[C@H]1c1cc(OC)c(OC)c(OC)c1)OCO3	Leishmania infantum	iRFP fluorescence	mouse splenocytes infected, amastigote, iRFP, ex vivo splenic explant	48 h	–	EC50	67.4 ± 2 µM
O=C(O)CC[C@H](NC(=O)c1cc(C(=O)O)cc([C@H]2CCN[C@@H]2C(=O)O)c1)C(=O)O	Glutamate receptor ionotropic, kainate 3 (Rattus norvegicus, UniProt P42264)	radioligand binding	Sf9 membranes	10 µM, homomeric receptor, added: [3H]kainate	–	specific binding	86 ± 3%
Cc1cc(NC(=O)c2cccc(NC(=O)C3=CC(C)(C)CC3=O)c2)ccc1Nc1nccc(-c2cccnc2)n1	MAPK8	kinase activity, inhibitor	–	14.81 µM, unit not given, added: 10 mM GSH	baseline: DMSO	remaining activity	0.0727
Cc1ccc(NC(=O)c2cc3ccccc3c(N=Nc3cc(S(=O)(=O)O)ccc3O)c2O)c(C)c1	Bcl-2-related protein A1 (Mus musculus, UniProt Q07440, C113S/P104K)	binding, inhibitor, fluorescence polarization competition	–	100 µM, overnight, 20 °C, added: FITC-Noxa peptide 375 nM	baseline: peptide without protein	Noxa peptide bound	1.2%
CCOC(=O)C1OC1C(=O)N(CC(N)=O)NC(=O)C1CCCN1C(=O)C(CC)NC(C)=O (stereo not shown)	Legumain (Mus musculus, UniProt O89017)	inhibitor	–	pH 5.8, added: Cbz-Ala-Ala-Asn-AMC 10 µM	–	kobs/[I]	53700 M⁻¹ s⁻¹
NC(=O)c1cn(-c2ccc(F)cc2)c2ccc(CN3CCSCC3)cc2c1=O	Grm2	calcium mobilization, negative allosteric modulator	–	30 µM, added: glutamate 100 µM	baseline: glutamate maximum	response	1.52 ± 0.63%
CC(=O)NCCCC[C@H](NC(C)=O)C(=O)Nc1ccc2c(C)cc(=O)oc2c1	HDAC6 (Homo sapiens, UniProt Q9UBN7)	deacetylation, substrate	–	25 °C, added: 10 to 50 nM enzyme	–	kcat	0.27 ± 0.04 s⁻¹
CC(C)(Cn1cc(-c2ccc(B(O)O)cc2)nn1)c1c[nH]c2ccccc12	GLP1R	cAMP accumulation, positive allosteric modulator, HTRF	–	0.6 µM, purified compound, added: GLP-1(9-36) at EC20	baseline: BETP	Emax	99 ± 1%
COC(=O)C1(C)C=C(C(=O)Nc2cccc(C(=O)Nc3ccc(Nc4nccc(-c5cccnc5)n4)c(C)c3)c2)C(=O)C1 (stereo not shown)	MAPK8 (Homo sapiens, UniProt P45983, C116S)	surface plasmon resonance	–	100, 300, 1000 nM, 1:1 binding model	–	koff	0.0353 s⁻¹

Structure (SMILES)	target or system	test	system	conditions	scale	measurement	value
O=C(OC(C(F)(F)F)C(F)(F)F)N1Cc2ccc(OCC(F)F)cc2C1	FAAH (Homo sapiens, UniProt O00519)	enzyme activity, inhibitor, fluorescence AAMCA substrate	–	1 µM	–	activity	inactive
CCC1NC(=O)C(CCCNC(=N)N)NC(=O)C(C)(NC(=O)C(C)C)CCCCNC(=O)C(c2ccccc2)NC1=O (stereo not shown)	WD repeat-containing protein 5, with MLL3, RbBP5 (WDR5, Homo sapiens, UniProt P61964)	GST pull-down	HeLa nuclear extract	up to 25 µM, added: 10 µM GST-MLL3	–	MLL3-RbBP5 binding	no effect
N#Cc1cnc(Nc2nc3ccccc3o2)nc1-c1cccc(Cl)c1	Grm5 (Rattus norvegicus, UniProt P31424)	calcium mobilization, negative allosteric modulator	–	added: glutamate EC80	baseline: glutamate maximum	maximal response	3.2 ± 0.8%
Cc1ccc(NS(=O)(=O)c2cc(C(=O)Nc3ccccc3C(=O)O)ccc2C)cc1	RPA1 N-terminal domain	binding, fluorescence polarisation competition	–	added: FITC-ATRIP probe	–	ligand efficiency	0.17
COCCOCCOCCOC(=O)C(C#N)=Cc1ccc(N(C)C)cc1OC	Amyloid-beta precursor protein, aggregated Aβ42 (APP, Homo sapiens, UniProt P05067)	fluorescence after Aβ binding, fluorescence spectroscopy	PBS	4 µM, added: aggregated Aβ(1-42) 5 µM	–	emission maximum	469 nm
O=C(O)c1ccnc(C(=O)O)c1Nc1ccccc1F	Egl nine homolog 1 (EGLN1, Homo sapiens, UniProt Q9GZT9)	inhibitor, HTRF	–	400 µM	–	remaining activity	100%
COC(=O)[C@@]1(C)C=C(C(=O)Nc2cccc(C(=O)NC34CC(Nc5nccc(-c6cccnc6)n5)(C3)C4)c2)C(=O)CC1	MAPK8	kinase activity, inhibitor	–	0.06097 µM, added: 10 mM GSH	–	remaining activity	0.296 fraction of control
Cc1ccc(C(=O)Nc2ccc(Br)cc2C(=O)O)cc1S(=O)(=O)Nc1ccc(Cl)c(Cl)c1	RPA1 N-terminal domain	binding, fluorescence polarisation competition	–	added: FITC-ATRIP probe	–	ligand efficiency	0.22
CC(=O)N[C@H]1[C@@H](O[C@H](C)[C@H](N)C(=O)O)O[C@H](CO)[C@H](O)[C@@H]1O	CLEC10A, carbohydrate recognition domain (Homo sapiens, UniProt Q8IUN9)	binding, ITC	–	293 K	–	ΔG	-7.42 ± 0.04 kcal/mol
Cc1nc(-c2cccc(CO)c2)sc1COc1ccc(CCC(=O)O)cc1	Vitamin D3 receptor (VDR, Homo sapiens, UniProt P11473)	reporter gene, antagonist	HEK-293T	up to 100 µM, CYP24A1 promoter luciferase, added: 1,25(OH)2D3 10 nM	–	IC50	inactive
COCOCCCC(C(=O)/C=C/c1ccc(O)c(OC(F)(F)F)c1)C(=O)/C=C/c1ccc(O)c(OC(F)(F)F)c1	APP (Homo sapiens, UniProt P05067)	SDS-PAGE western blot, item: Aβ1-42 species 75-200 kDa	–	30 µM, 24 h, 37 °C, added: Aβ 10 µM	baseline: DMSO control	Aβ band density	548 ± 126%
C[C@H](Nc1nc(N[C@H](C)C2CC2)nc(-c2cccc(C(F)(F)F)n2)n1)C1CC1	IDH1 (Homo sapiens, UniProt O75874, R132H)	enzyme activity, inhibitor	–	mutant heterodimer reverse reaction	–	maximal inhibition	110%
Cc1nc2ccc(S(=O)(=O)n3nc(NCCc4ccc(Cl)cc4)nc3N)cc2s1	Lysophospholipase-like protein 1 (Mus musculus, UniProt Q3UFF7)	activator, gel-based ABPP, FP-rhodamine	HEK293 overexpressing Lysophospholipase-like protein 1	10 µM	–	activation	0%
Cc1nc(-c2ccc(OCC(C)C)c(C#N)c2)sc1C(N)=O	Grm2	thallium flux, positive allosteric modulator	HEK293 GIRK	added: glutamate EC20	baseline: glutamate max	efficacy	117 ± 9.1%
O=C(CCl)N1CCN(c2cc(N3CCCC3)nc(N3CCCC3)n2)CC1	Caspase-1 (CASP1, Homo sapiens, UniProt P29466)	DTT reversibility	–	concentration not given, added: 10 mM DTT	–	recovered enzyme activity	50 to 65%
CC(=O)N1CCN(c2ccc(Nc3ncc4c(n3)N(C)C(=O)N(c3cc(NC(=O)c5ccc(CN6CCC(N(C)C)C6)c(C(F)(F)F)c5)ccc3C)C4)cn2)CC1 (stereo not shown)	FGFR4/Transcription factor ETV6 (Homo sapiens, UniProt P22455+P41212, N535K)	cell proliferation	Ba/F3 TEL-FGFR4 N535K	72 h	–	GI50	0.012 µM
O=C(Nc1ccccc1)C12CC1/C(=N\O)c1cc(F)ccc1O2 (stereo not shown)	Grm1 (Rattus norvegicus, UniProt P23385)	antagonist, calcium mobilization	BHK	concentration not given, added: glutamate EC80	baseline: maximal glutamate	response	49%
CN1CCN(c2ccc(-c3cccc(CN4CCN(CCNC(=O)CCCCCCCNc5cccc6c5C(=O)N(C5CCC(=O)NC5=O)C6=O)CC4)c3)cc2NC(=O)c2c[nH]c(=O)cc2C(F)(F)F)CC1 (stereo not shown)	WDR5 (Homo sapiens, UniProt P61964)	degrader, immunoblot, item: WDR5 protein level	MV4;11	0.5 µM, 12 h treatment then washout	–	recovery time after washout	36 h

Some of these lines once more:
Structure (SMILES)	target or system	test	system	conditions	scale	measurement	value
Cc1ccc(C(=O)Nc2ccc(Br)cc2C(=O)O)cc1S(=O)(=O)Nc1ccc(Cl)c(Cl)c1	RPA1 N-terminal domain	binding, fluorescence polarisation competition	–	added: FITC-ATRIP probe	–	ligand efficiency	0.22
CCC1NC(=O)C(CCCNC(=N)N)NC(=O)C(C)(NC(=O)C(C)C)CCCCNC(=O)C(c2ccccc2)NC1=O (stereo not shown)	WD repeat-containing protein 5, with MLL3, RbBP5 (WDR5, Homo sapiens, UniProt P61964)	GST pull-down	HeLa nuclear extract	up to 25 µM, added: 10 µM GST-MLL3	–	MLL3-RbBP5 binding	no effect
CC(=O)N1CCN(c2ccc(Nc3ncc4c(n3)N(C)C(=O)N(c3cc(NC(=O)c5ccc(CN6CCC(N(C)C)C6)c(C(F)(F)F)c5)ccc3C)C4)cn2)CC1 (stereo not shown)	FGFR4/Transcription factor ETV6 (Homo sapiens, UniProt P22455+P41212, N535K)	cell proliferation	Ba/F3 TEL-FGFR4 N535K	72 h	–	GI50	0.012 µM
